# Published values gathered from unrelated publications.
# Parts stem from different laboratories: compare values within a part only.

# Set 1 — technique: RNA Bind-n-Seq; form: RNA; matrix: in vitro; tested at: 365 nM; reference: no-protein control; direction: higher = stronger binding
# Target: RNA binding protein fox-1 homolog 2, RRM domain, GST-SBP tag (RBFOX2, Homo sapiens, UniProt O43251-10, residues 100-194)
# Setting: natural RNA segment, single round, ends assumed
# Constant ends, left off below: GGGAGUUCUACAGUCCGACGAUC … UGGAAUUCUCGGGUGCCAA
# Construct (chain): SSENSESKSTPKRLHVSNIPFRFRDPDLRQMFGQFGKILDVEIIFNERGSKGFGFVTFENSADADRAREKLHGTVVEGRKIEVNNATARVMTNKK
Oligonucleotide,RBNS enrichment (R)
CCGCAUCCUCCUUCCCAGGUGUUGGACCAAGACCCGCCCCGCUGCCUGGCACUGCUUGGAGGUGUGCAGAGCGGAAGCAAGUGGAGCAUCCGGGGCAUUCCUGUUGACCC,2.38
UUAUAGGGUCCCUGAAUCACUGAUCUUCAACAGGGCAUUUUAAUAUUAGCAUUAGUGUGCACAGGGUACUUUUGAAAUGGUUUUGGAUAGAUUUACAAUAUGUAAGAUUA,0.797
AGUGCCCGCUGACUGCUGCCGCCACCUCUGUCUCGCUCCCUGUCAGUGCUGCUGGCACGUGGGACGCGGCAGGUGACAGCCGUUCUCAGCAUGUUUUAGAAGCUUGCCUC,0.351
CAUUCACAUCAUUUCAUUUUGGUCUGGAUGAUGGUCUGAGCCAGGGCACAUAGAACAUUGCUAUCCAUGCAGCCUUUGGGCCCCAGGGAACGGUCACCCUGUAAAGUGCU,0.273
ACAGUUCAGGGGAUCUCAGCUAACUCUAGUGGAAGUGAUACAAAGCAAGCUUAAAUUACAGAAGCAACUAUCCUGUCGAAAUGUCGUAAUACAGUCCAGCUGAAAGUAGG,0.379

# Set 2 — technique: RNA Bind-n-Seq; form: RNA; matrix: in vitro; tested at: 20 nM; setting: 6-mer, flanks averaged, single round; added: 150 mM KCl; reference: input library; direction: higher = stronger binding
# Target: TAR DNA-binding protein 43, full length, His tag (TARDBP, Homo sapiens, UniProt Q13148, residues 1-414)
Oligonucleotide,6-mer enrichment (R)
CACAGU,0.674
UAUUAG,0.662
AAGUGG,1.64
UGCCCG,0.744
GGAGUU,1.3
CCGCAC,0.697

# Set 3 — technique: RNA Bind-n-Seq; form: RNA; matrix: in vitro; tested at: 200 nM; setting: whole 134-nt RNA, ends assumed; added: 150 mM LiCl; reference: input library; direction: higher = stronger binding; each molecule: 7-deaza-guanosine replaces G
# Target: Ras GTPase-activating protein-binding protein 1, full length (G3BP1, Homo sapiens, UniProt Q13283)
# Chain of UniProt Q13283 (whole entry, looked up): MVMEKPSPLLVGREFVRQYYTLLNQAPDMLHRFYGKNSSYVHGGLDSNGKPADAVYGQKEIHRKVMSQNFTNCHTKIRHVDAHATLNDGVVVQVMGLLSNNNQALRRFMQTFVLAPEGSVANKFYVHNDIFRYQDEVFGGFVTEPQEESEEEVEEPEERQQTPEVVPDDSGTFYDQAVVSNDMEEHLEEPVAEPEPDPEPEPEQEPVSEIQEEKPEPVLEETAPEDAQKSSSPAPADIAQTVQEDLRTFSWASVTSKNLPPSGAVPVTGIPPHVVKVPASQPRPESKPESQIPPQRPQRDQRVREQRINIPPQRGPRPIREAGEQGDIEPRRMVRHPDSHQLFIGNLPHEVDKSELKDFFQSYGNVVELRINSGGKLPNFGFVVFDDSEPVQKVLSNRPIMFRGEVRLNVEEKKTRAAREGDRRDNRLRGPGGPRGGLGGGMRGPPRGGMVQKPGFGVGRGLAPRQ
Oligonucleotide,log2 enrichment
GGGAGUUCUACAGUCCGACGAUCUGGCCCUGGUGGCAUGCGGGGAGGAAGAGGUGGCCUCAUGGAUCGUGGUGGUCCCGGUGGAAUGUUCAGAGGUGGCCGUGGUGGCGACAGUGGAAUUCUCGGGUGUCAAGG,-0.147
GGGAGUUCUACAGUCCGACGAUCUUGUCCCGGAUGGGCAGCCUGCGGGCUCCCGUGGACGAGGACCGCCUGUCCCCGCUGGUGGCGGCCGACUCGCUCCUGGAGCAUGUGCGGUGGAAUUCUCGGGUGUCAAGG,-0.411
GGGAGUUCUACAGUCCGACGAUCAAGUCCUGUGCUACACAUCGUAUGUACCGAAUCGGGUUUUGGUUUUGGGGUUUUGGAAAGUAUUAUGUUACGCCGUUCGGAUCUGCACUUUGGAAUUCUCGGGUGUCAAGG,-0.373

# Other studies, line by line
Molecule,target,test,system,conditions,how to read,quantity,result
"PhoQ, residues 284 288 289 292 302 303 TYGVAM","PhoP, residues 12 14 15 18 19 GQAIL (Escherichia coli, UniProt P23836)","Sort-seq, item: YFP reporter",E. coli,"PhoQ-PhoP variant library, added: 10 µM Mg2+","reference: high Mg2+ state, higher = stronger signaling",fold induction,21

# Excerpt of the above (set 1):
Oligonucleotide,RBNS enrichment (R)
AGUGCCCGCUGACUGCUGCCGCCACCUCUGUCUCGCUCCCUGUCAGUGCUGCUGGCACGUGGGACGCGGCAGGUGACAGCCGUUCUCAGCAUGUUUUAGAAGCUUGCCUC,0.351
